Published values pooled from the literature.
Each line is one published result; not all experiments were run side by side. Several values in a cell are separate wells, animals, samples, runs or records. ± gives the spread as reported.
TNIK: TRAF2 and NCK-interacting protein kinase (TNIK, Homo sapiens, UniProt Q9UKE5)
Chain of UniProt Q9UKE5 (whole entry, looked up): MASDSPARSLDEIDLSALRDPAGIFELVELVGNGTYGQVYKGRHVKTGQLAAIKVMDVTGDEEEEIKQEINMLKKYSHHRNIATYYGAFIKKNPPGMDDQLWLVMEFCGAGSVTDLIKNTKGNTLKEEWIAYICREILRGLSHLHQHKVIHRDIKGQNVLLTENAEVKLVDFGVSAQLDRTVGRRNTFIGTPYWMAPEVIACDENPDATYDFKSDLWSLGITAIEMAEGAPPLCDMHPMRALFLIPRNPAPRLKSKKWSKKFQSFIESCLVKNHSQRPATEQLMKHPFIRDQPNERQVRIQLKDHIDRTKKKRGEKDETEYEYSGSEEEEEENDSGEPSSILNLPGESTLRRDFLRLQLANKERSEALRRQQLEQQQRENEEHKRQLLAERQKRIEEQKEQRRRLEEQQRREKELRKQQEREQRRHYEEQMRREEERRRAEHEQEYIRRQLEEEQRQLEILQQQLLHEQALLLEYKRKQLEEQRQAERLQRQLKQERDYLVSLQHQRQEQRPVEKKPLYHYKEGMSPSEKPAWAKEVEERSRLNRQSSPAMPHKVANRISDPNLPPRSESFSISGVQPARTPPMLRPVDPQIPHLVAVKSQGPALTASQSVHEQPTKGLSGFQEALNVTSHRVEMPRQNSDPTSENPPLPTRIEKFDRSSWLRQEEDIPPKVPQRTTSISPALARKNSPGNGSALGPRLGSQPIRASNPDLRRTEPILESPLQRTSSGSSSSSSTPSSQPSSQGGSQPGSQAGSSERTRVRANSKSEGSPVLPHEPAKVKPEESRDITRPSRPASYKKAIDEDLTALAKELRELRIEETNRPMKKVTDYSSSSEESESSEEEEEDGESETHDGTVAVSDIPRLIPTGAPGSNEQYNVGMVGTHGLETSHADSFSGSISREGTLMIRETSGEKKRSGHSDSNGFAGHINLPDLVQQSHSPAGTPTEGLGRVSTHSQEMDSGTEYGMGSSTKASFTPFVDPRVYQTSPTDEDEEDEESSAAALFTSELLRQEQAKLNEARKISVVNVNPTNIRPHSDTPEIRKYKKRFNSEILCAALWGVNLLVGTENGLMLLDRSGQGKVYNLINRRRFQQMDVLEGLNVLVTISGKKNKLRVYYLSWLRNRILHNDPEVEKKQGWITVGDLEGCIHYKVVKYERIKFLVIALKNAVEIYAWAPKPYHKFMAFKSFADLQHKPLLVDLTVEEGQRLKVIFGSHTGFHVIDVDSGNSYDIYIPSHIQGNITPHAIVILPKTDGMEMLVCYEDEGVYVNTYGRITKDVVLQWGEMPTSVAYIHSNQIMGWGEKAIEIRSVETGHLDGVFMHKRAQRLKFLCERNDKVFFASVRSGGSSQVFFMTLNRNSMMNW
HSP90AB1: Heat shock protein HSP 90-beta (HSP90AB1, Homo sapiens, UniProt P08238)
Chain of UniProt P08238 (whole entry, looked up): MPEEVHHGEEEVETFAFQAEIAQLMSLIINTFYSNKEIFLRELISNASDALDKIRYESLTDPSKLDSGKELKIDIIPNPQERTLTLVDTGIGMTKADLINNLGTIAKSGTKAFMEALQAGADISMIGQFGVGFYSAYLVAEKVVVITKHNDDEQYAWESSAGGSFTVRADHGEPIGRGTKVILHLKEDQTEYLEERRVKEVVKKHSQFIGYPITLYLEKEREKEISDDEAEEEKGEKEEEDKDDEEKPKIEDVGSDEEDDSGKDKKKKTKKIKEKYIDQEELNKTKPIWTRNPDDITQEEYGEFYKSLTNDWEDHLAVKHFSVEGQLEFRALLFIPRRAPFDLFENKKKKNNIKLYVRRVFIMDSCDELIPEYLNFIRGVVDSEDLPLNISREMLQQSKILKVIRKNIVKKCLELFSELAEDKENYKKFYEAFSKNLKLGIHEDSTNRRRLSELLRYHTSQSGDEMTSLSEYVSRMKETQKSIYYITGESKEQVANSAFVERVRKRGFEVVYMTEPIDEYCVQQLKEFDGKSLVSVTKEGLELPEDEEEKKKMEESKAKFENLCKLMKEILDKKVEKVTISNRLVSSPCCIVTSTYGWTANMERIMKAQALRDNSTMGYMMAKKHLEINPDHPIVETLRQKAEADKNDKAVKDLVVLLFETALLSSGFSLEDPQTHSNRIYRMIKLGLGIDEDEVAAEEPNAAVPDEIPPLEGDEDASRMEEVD
Chain of UniProt Q9NNX6 (whole entry, looked up): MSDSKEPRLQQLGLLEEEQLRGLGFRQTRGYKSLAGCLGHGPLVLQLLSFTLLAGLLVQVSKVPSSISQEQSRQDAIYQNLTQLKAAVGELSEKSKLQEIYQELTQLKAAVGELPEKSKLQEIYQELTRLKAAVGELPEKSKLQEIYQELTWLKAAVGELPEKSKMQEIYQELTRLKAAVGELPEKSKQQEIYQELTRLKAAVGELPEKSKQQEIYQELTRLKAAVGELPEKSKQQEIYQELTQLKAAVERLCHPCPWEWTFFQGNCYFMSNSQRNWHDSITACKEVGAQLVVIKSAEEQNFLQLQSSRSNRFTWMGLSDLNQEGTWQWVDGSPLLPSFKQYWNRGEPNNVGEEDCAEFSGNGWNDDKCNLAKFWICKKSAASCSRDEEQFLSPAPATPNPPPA
Chain of UniProt A0A0D1DWZ5 (whole entry, looked up): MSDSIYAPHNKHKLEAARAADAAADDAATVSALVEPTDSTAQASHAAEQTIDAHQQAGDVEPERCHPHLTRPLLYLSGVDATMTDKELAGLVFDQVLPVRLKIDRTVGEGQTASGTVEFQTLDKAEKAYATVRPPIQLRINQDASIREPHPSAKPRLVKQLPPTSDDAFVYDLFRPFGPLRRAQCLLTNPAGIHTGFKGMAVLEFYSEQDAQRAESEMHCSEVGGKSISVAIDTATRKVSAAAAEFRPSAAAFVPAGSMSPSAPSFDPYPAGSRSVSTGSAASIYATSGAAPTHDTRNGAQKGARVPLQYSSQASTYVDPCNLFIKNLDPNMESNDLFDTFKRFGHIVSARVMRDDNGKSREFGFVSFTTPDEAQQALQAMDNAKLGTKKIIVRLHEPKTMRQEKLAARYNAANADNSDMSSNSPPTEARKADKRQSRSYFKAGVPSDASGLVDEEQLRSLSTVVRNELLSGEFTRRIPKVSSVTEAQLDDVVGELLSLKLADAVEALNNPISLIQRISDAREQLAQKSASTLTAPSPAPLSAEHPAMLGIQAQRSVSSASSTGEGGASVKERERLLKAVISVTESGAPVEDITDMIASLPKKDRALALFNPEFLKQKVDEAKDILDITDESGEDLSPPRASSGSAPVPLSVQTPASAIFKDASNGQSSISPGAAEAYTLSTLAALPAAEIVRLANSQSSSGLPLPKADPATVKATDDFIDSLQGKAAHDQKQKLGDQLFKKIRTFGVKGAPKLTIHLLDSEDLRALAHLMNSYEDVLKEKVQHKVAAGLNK
Chain of UniProt P19174 (whole entry, looked up): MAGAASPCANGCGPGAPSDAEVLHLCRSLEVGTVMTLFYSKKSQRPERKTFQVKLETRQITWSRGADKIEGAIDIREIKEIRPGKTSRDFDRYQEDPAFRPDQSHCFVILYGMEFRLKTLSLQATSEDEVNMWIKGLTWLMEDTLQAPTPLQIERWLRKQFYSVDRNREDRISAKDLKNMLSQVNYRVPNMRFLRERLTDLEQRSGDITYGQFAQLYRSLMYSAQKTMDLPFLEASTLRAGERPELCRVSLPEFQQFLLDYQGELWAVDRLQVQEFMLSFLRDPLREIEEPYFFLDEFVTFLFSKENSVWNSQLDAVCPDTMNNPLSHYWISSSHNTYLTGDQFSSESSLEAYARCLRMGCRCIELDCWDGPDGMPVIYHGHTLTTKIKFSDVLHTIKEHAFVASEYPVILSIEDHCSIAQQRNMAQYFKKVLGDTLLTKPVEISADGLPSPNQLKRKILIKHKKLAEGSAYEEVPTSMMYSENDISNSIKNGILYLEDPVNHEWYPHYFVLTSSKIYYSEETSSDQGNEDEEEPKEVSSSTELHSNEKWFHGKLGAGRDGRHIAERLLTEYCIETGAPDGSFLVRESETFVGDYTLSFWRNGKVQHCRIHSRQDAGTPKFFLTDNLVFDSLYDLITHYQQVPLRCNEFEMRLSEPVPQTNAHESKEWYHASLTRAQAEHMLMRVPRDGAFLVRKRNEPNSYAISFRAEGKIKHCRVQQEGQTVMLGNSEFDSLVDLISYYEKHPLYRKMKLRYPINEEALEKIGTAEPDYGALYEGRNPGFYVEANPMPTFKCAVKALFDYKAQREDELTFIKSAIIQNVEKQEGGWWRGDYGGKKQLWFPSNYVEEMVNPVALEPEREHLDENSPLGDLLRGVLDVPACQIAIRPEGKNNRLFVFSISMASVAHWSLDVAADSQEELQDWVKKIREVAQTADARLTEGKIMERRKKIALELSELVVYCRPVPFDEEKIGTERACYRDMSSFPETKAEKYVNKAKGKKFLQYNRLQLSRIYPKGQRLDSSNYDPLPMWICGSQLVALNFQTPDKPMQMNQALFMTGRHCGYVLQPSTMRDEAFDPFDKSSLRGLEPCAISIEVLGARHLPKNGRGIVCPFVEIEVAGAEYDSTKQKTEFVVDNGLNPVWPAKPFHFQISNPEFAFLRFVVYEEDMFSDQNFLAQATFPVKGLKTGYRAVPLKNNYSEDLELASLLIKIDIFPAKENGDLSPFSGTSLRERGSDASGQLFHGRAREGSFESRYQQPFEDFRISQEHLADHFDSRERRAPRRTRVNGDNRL
Chain of UniProt Q9NR28 (whole entry, looked up): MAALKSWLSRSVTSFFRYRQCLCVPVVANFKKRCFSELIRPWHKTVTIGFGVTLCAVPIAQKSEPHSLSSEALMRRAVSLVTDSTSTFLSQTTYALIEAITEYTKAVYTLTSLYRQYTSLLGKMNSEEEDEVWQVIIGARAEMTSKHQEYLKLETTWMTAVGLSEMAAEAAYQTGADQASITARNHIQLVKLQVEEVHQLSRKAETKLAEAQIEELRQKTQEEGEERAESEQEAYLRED

`C=C1NC(=O)[C@H](CO)NC(=O)[C@H](CSCC(N)=O)NC(=O)CNC(=O)[C@H](Cc2ccc(O)cc2)NC(=O)[C@H](C)NC(=O)[C@H](CO)NC(=O)[C@H](CC(=O)O)NC(=O)CNC(=O)[C@H](CC(C)C)NC(=O)[C@H](Cc2c[nH]c3ccccc23)NC(=O)[C@H](Cc2c[nH]c3ccccc23)NC(=O)c2ccc(-c3nc(C(=O)OC)cs3)nc2-c2csc1n2` gave a Kd of 0.028 µM (TNIK; binding, SPR).
The Kd of `O=C(N[C@@H]1c2ccccc2C[C@H]1N1CCCC1)c1ccc(-c2ccnc3[nH]ccc23)nc1` is reported as 0.47 µM (MAP2K3 (Homo sapiens, UniProt P46734); binding, competition with immobilised ligand).
`O=C(CF)N[C@H]1[C@H]([C@H](O)[C@H](O)CNC(=O)c2ccc(-c3ccccc3)cc2)O[C@@](OCc2cccc(Cl)c2Cl)(C(=O)O)C[C@@H]1O` has a Kd of 0.16 µM (CD22 (Homo sapiens, UniProt P20273); binding, ITC).
With `C=C(c1ccccc1)[C@@H](N)P(=O)(O)O` the Kd was 0.17 µM (PAL1 (Petroselinum crispum, UniProt P24481, Y110F); ITC).
`CC[C@H](C)[C@H](NC(=O)[C@H](CCC(=O)O)NC(=O)[C@H](CCCNC(=N)N)NC(=O)[C@H](C)NC(=O)[C@H](Cc1c[nH]c2ccccc12)NC(=O)[C@H](CCC(N)=O)NC(=O)[C@H](CCC(=O)O)NC(=O)[C@H](CCC(=O)O)NC(C)=O)C(=O)NCC(=O)N[C@@H](C)C(=O)N[C@@H](CCC(N)=O)C(=O)N[C@@H](CC(C)C)C(=O)N[C@@H](CCCNC(=N)N)C(=O)N[C@@H](CCCNC(=N)N)C(=O)N[C@@H](CCSC)C(=O)N[C@@H](C)C(=O)N[C@@H](CC(=O)O)C(=O)N[C@@H](CC(=O)O)C(=O)N[C@@H](CC(C)C)C(=O)N[C@@H](CC(N)=O)C(=O)N[C@@H](C)C(=O)N[C@@H](CCC(N)=O)C(=O)N[C@@H](Cc1ccc(O)cc1)C(=O)N[C@@H](CCC(=O)O)C(=O)N[C@@H](CCCNC(=N)N)C(N)=O` has a Kd of 0.003 ± 0.002 µM (Bcl-2-like protein 1, C-terminal truncated (BCL2L1, Homo sapiens, UniProt Q07817); binding, ITC; 25 °C).
For `CSCC[C@H](NC=O)C(=O)N[C@@H](CCCNC(=N)N)C(=O)N[C@H](C(=O)NCC(=O)N[C@@H](CC(N)=O)C(=O)N[C@@H](C)C(=O)N[C@@H](CC(N)=O)C(=O)NCC(=O)NCC(=O)N[C@@H](CCCCNC(=S)Nc1ccc2c(c1)C(=O)OC21c2ccc(O)cc2Oc2cc(O)ccc21)C(=O)O)[C@@H](C)O`, the Kd was over 1000 µM (Uncharacterized protein YejA (yejA, Escherichia coli, UniProt P33913, Y509A); binding, fluorescence polarisation; YejA variant Y491A).
`CSCC[C@H](NC(=O)CNC(=O)[C@H](CCCNC(=N)N)NC(=O)[C@H](C)NC(=O)[C@@H](NC(=O)[C@H](CCC(N)=O)NC(=O)[C@H](Cc1ccc(OP(=O)(O)O)cc1)NC(=O)[C@H](C)NC(=O)[C@H](CS)NC(=O)[C@H](CO)NC(=O)[C@@H](NC(=O)[C@H](CC(C)C)NC(=O)[C@H](CC(=O)O)NC(=O)[C@H](CCCCN)NC(=O)[C@H](CO)NC(=O)[C@H](CO)NC(=O)c1ccc2c(c1)C(=O)OC21c2ccc(N(C)C)cc2Oc2cc(N(C)C)ccc21)C(C)C)C(C)C)C(=O)N[C@@H](CCC(=O)O)C(=O)N[C@@H](CC(=O)O)C(=O)O` gave a Kd of 0.012 µM (Tyrosine-protein kinase ABL2, SH2 domain (ABL2, Homo sapiens, UniProt P42684); binding).
For `NCc1cn([C@@H]2[C@@H](OCCn3cc(COCCOCCOCCn4cc(-c5cc(OCCOCCO)c(C#Cc6cc(OCCOCCO)c(C#Cc7cc(OCCOCCO)c(-c8cn(CCOCCOCCOCc9cn(CCO[C@H]%10O[C@H](CO)[C@@H](O)[C@H](O)[C@@H]%10n%10cc(CN)nn%10)nn9)nn8)cc7OCCOCCO)cc6OCCOCCO)cc5OCCOCCO)nn4)nn3)O[C@H](CO)[C@@H](O)[C@@H]2O)nn1`, the Kd was 24.5 µM and 31.7 µM (CD209 antigen (CD209, Homo sapiens, UniProt Q9NNX6); binding).
`C=C1NC(=O)[C@H](C)NC(=O)[C@H](Cc2ccccc2)NC(=O)[C@H](CCCNC(=N)N)NC(=O)[C@H](CCSC)NC(=O)CNC(=O)[C@H]([C@@H](C)CC)NC(=O)[C@H](CCC(N)=O)NC(=O)[C@H]([C@@H](C)CC)NC(=O)[C@H](CC(=O)O)NC(=O)[C@H](Cc2c[nH]c3ccccc23)NC(=O)[C@H](Cc2c[nH]c3ccccc23)NC(=O)c2ccc(-c3nc(C(=O)OC)cs3)nc2-c2csc1n2` gave a Kd of 0.025 µM (TNIK; binding, SPR).
The Kd of `CCCc1cc2cc(-n3nc(C(F)(F)F)c4c3CC(C)(C)CC4=O)cc(N3CCC(O)CC3)c2c(=O)[nH]1` is reported as 0.587 µM (HSP90AB1; fluorescence polarization; 24 h, 4 °C, together with: FITC-geldanamycin tracer).
The Kd of `c1ccc2c(c1)nc(CNCC13CC4CC(CC(C4)C1)C3)n2CCOC1CCCCC1` is reported as 180 µM (Penicillin-binding protein 2X (Streptococcus pneumoniae R6, UniProt P59676); binding, MST).
The Kd of `CC(C)[C@H](NC(=O)[C@H](Cc1ccccc1)NC(=O)[C@H](CC(=O)O)NC(=O)[C@H](CC(=O)O)NC(=O)[C@H](CCC(N)=O)NC(=O)[C@H](CC(=O)O)NC(=O)[C@H](CCC(=O)O)NC(=O)[C@H](CCC(=O)O)NC(=O)[C@H](CCC(N)=O)NC(=O)[C@H](CC(=O)O)NC(=O)[C@H](C)NC(=O)[C@H](C)NC(=O)[C@@H](N)CCC(=O)O)C(=O)N[C@@H](Cc1ccc(O)cc1)C(=O)N1CCC[C@H]1C(=O)NCC(=O)N[C@@H](C)C(=O)N[C@@H](CC(=O)O)C(=O)O` is reported as 12.1 µM (RNA-binding protein RRM4 (RRM4, Mycosarcoma maydis, UniProt A0A0D1DWZ5); isothermal titration calorimetry; pH 8.0, 25 °C).
`CC[C@H](C)[C@H](NC(=O)[C@H](C)NC(=O)CNC(=O)[C@@H](NC(=O)[C@@H](NC(=O)[C@H](CO)NC(=O)[C@H](CO)NC(=O)[C@@H](NC(=O)[C@H](CC(N)=O)NC(=O)[C@@H]1CCCN1C(=O)[C@H](Cc1c[nH]cn1)NC(=O)[C@H](Cc1c[nH]c2ccccc12)NC(=O)[C@@H](NC(=O)[C@H](CCCCN)NC(=O)[C@@H](NC(=O)[C@@H](NC(=O)[C@H](Cc1ccccc1)NC(=O)[C@H](CCCNC(=N)N)NC(=O)[C@@H](N)C(C)C)[C@@H](C)CC)[C@@H](C)O)[C@@H](C)CC)[C@@H](C)CC)C(C)C)[C@@H](C)O)C(=O)N[C@@H](CS)C(=O)N[C@@H](CC(C)C)C(=O)N[C@@H](CC(=O)O)C(=O)N[C@H](C(=O)N[C@@H](CC(C)C)C(=O)N[C@@H](CCCCN)C(=O)O)[C@@H](C)CC` gave a Kd of 0.75 ± 0.05 µM (Diablo IAP-binding mitochondrial protein (DIABLO, Homo sapiens, UniProt Q9NR28); binding, microscale thermophoresis; 30 min, pH 7.4, 37 °C).
With `CC[C@H](C)[C@H](NC(=O)[C@H](CCCNC(=N)N)NC(=O)[C@H](CCCNC(=N)N)NC(=O)[C@H](CC(C)C)NC(=O)[C@H](CCC(=O)O)NC(=O)[C@H](CCC(N)=O)NC(=O)[C@H](C)NC(=O)[C@@H](NC(=O)[C@H](CNC(=O)CCl)NC(=O)[C@H](CCCNC(=N)N)NC(=O)[C@H](CCCNC(=N)N)NC(=O)[C@@H]1CCCN1C(=O)[C@H](CCCNC(=N)N)NC(=O)[C@H](CCCNC(=N)N)NC(=O)[C@@H]1CCCN1C(=O)[C@H](CCCNC(=N)N)NC(=O)[C@H](CCCNC(=N)N)NC(=O)[C@@H]1CCCN1C(=O)[C@H](CCCNC(=N)N)NC(=O)[C@H](CCCNC(=N)N)NC(=O)[C@@H]1CCCN1C(=O)[C@H](CCCNC(=N)N)NC(=O)[C@H](CCCNC(=N)N)NC(=O)[C@@H]1CCCN1C(C)=O)[C@@H](C)CC)C(=O)NCC(=O)N[C@@H](CC(=O)O)C(=O)N[C@@H](CCC(=O)O)C(=O)N[C@@H](Cc1ccccc1)C(=O)N[C@@H](CC(N)=O)C(=O)N[C@@H](C)C(=O)N[C@@H](Cc1ccc(O)cc1)C(=O)N[C@@H](Cc1ccc(O)cc1)C(=O)N[C@@H](C)C(=O)N[C@@H](CCCNC(=N)N)C(=O)N[C@@H](CCCNC(=N)N)C(N)=O` the Kd was 0.0127 µM (BCL2L1 (Homo sapiens, UniProt Q07817); binding, ITC).
The Kd of `CCCc1cc2cc(-n3nc(C)c4c3CC3(CCC3)CC4=O)cc(N3CCC(O)CC3)c2c(=O)[nH]1` is reported as 0.318 µM (HSP90AB1; fluorescence polarization; 24 h, 4 °C, together with: FITC-geldanamycin tracer).
The Kd of `CC[C@H](C)[C@H](NC(=O)[C@H](CCC(=O)O)NC(=O)[C@H](C)NC(=O)[C@H](CCCCN)NC(=O)[C@H](CC(C)C)NC(=O)[C@@H](NC(=O)[C@H](CCC(=O)O)NC(=O)[C@@H](NC(=O)[C@H](CCC(=O)O)NC(=O)[C@H](CC(=O)O)NC(=O)[C@H](C)NC(=O)[C@@H](NC(=O)[C@@H](NC(=O)[C@H](C)NC(=O)[C@H](C)NC(C)=O)C(C)C)[C@@H](C)O)[C@@H](C)O)C(C)C)C(=O)N[C@H]1CSCc2cccc(c2)CSC[C@@H](C(=O)N[C@@H](CCC(N)=O)C(=O)N[C@H](C(=O)N[C@@H](CCC(N)=O)C(=O)N[C@@H](CCC(=O)O)C(=O)N[C@@H](CCC(=O)O)C(=O)N[C@@H](CC(=O)O)C(=O)N2CCC[C@H]2C(=O)N[C@@H](CC(N)=O)C(=O)NCCC(=O)N[C@@H](CCCCNC(=O)CCCC[C@@H]2SC[C@@H]3NC(=O)N[C@@H]32)C(N)=O)C(C)C)NC(=O)[C@H](C(C)C)NC(=O)[C@H](C)NC(=O)[C@H](CCCCN)NC1=O` is reported as 0.12 µM (MYC (Homo sapiens, UniProt P01106); binding, BLI).
For `CCCc1cc2cc(-n3nc(CO)c4c3CC(C)(C)CC4=O)cc(N3CCC(O)CC3)c2c(=O)[nH]1`, the Kd was 4.9 µM (HSP90AB1; fluorescence polarization; 24 h, 4 °C, together with: FITC-geldanamycin tracer).
`CC(C)[C@@H]1NC(=O)[C@H](Cc2ccccc2)NC(=O)CSC[C@@H](C(N)=O)NC(=O)[C@H](CCC(=O)O)NC(=O)[C@H](CO)NC(=O)[C@H](Cc2c[nH]c3ccccc23)NC(=O)[C@H](C(C)C)NC(=O)[C@H](C(C)C)NC(=O)[C@H](Cc2ccc(O)cc2)NC(=O)[C@H](CC(=O)O)NC(=O)[C@H](Cc2c[nH]c3ccccc23)NC(=O)[C@H](Cc2ccc(O)cc2)NC(=O)[C@H](Cc2c[nH]c3ccc(Cl)cc23)NC(=O)[C@H](CCC(=O)O)NC1=O` gave a Kd of 0.277 ± 0.006 µM (Interleukin-1 receptor-like 2, D1-D2 domains (IL1RL2, Homo sapiens, UniProt Q9HB29); SPR; IL-36R domains D1-D2).
The Kd of `CC[C@H](C)[C@H](NC(=O)c1ccc2c(c1)C(=O)OC21c2ccc(N(C)C)cc2Oc2cc(N(C)C)ccc21)C(=O)N[C@H](C(=O)N[C@@H](C)C(=O)N[C@@H](CC(C)C)C(=O)N[C@H](C(=O)N[C@@H](CO)C(=O)N[C@@H](CC(N)=O)C(=O)N[C@@H](CCC(N)=O)C(=O)N[C@@H](CCC(=O)O)C(=O)N[C@@H](Cc1ccc(OP(=O)(O)O)cc1)C(=O)N[C@@H](CC(C)C)C(=O)N[C@@H](CC(=O)O)C(=O)N[C@@H](CC(C)C)C(=O)N[C@@H](CO)C(=O)N[C@@H](CCSC)C(=O)N1CCC[C@H]1C(=O)N[C@@H](CC(C)C)C(=O)N[C@@H](CC(=O)O)C(=O)O)[C@@H](C)O)C(C)C` is reported as 1.83 µM (1-phosphatidylinositol 4,5-bisphosphate phosphodiesterase gamma-1, SH2 domains (PLCG1, Homo sapiens, UniProt P19174); binding).
With `CC1(C)C(NC(=O)C(=NOC2(C(=O)O)CC2)c2csc(N)n2)C(=O)N1OS(=O)(=O)O` (centres unmarked) the Kd was 54 µM (blaUOE-1 (Escherichia coli, UniProt Q9EXV5); binding, surface plasmon resonance).
